Measured values of several laboratories.
Every numbered part comes from another study and shows a few of its results, in no order. Changes are numbered by the printed parent chain.

Sample 1 — target: CCNE1, cyclin fold, Cln2 fusion (human); method: yeast growth competition, sequencing; matrix: yeast; setting: strong parent motif; reference: not given; reading: higher = stronger binding; quantity: normalised enrichment score
Starting sequence: E2F1 docking peptide (human); PPVKRRLDFETDH; partner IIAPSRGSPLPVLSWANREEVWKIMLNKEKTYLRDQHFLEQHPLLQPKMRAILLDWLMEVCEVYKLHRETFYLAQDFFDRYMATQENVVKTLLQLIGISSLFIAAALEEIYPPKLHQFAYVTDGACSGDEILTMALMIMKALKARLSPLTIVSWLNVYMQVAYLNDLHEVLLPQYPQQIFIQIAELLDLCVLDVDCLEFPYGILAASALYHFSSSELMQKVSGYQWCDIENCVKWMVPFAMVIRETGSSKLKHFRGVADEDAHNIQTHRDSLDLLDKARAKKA
PPVKRRLQFETDH [D8Q]: 6
PDVKRRLDFETDH [P2D]: 5.65
PPVKRRLDFTTDH [E10T]: 6.15
PPEKRRLDFETDH [V3E]: 1.42
PNVKRRLDFETDH [P2N]: 6.44
PPMKRRLDFETDH [V3M]: 2.54
PPVKRRLDFSTDH [E10S]: 6.05
PPVKRRLDFENDH [T11N]: 6.19
PAVKRRLDFETDH [P2A]: 6.15
PPVKRRDDFETDH [L7D]: 0.101
PPVKRRHDFETDH [L7H]: 0.17
PPVKRRLDFCTDH [E10C]: 6.27
PPVKRRLFFETDH [D8F]: 7.39
PPVPRRLDFETDH [K4P]: 2.54
PPVKRRLDFERDH [T11R]: 6.01
PPVKRRLDFEHDH [T11H]: 6.15
PPVKRRLDFEPDH [T11P]: 6.16
PPVKRRLIFETDH [D8I]: 4.92
PPVKRSLDFETDH [R6S]: 3.08
PTVKRRLDFETDH [P2T]: 6.5
PPVKRRLDFETFH [D12F]: 6.36
PPVKRRLDFETIH [D12I]: 6.46
PPVRRRLDFETDH [K4R]: 6.15
PYVKRRLDFETDH [P2Y]: 5.97
PPVKRRLTFETDH [D8T]: 6.46

Sample 2 — target: OGT, full length, His-tagged (human); method: phage display, sequencing; matrix: in vitro; tested at: 1 µg OGT; reference: input library; reading: higher = stronger binding; quantity: fold enrichment; starting sequence: peptide; VAYPNSYMPKYQIST
Setting: single substitutions, 15-mer displayed peptide, unchanged parent 6.14
T15R: 3.01 fold
A2D: 8.72 fold
Y3P: 7.3 fold
M8D: 0.95 fold
I13Q: 0.718 fold
I13A: 0.57 fold
Q12W: 0.909 fold
V1A: 4.41 fold
S6N: 4.31 fold
S14H: 9.58 fold
P9W: 1.49 fold
Y11M: 0.686 fold
M8E: 1.05 fold
I13D: 0.494 fold
Y3M: 3.46 fold
N5I: 2.56 fold
N5M: 8.97 fold
N5R: 3.64 fold
A2S: 4.82 fold

Sample 3 — method: RNA Bind-n-Seq; form: RNA; matrix: in vitro; tested at: not given; setting: RNA with constant flanks, ends assumed; reference: input RNA pool; reading: higher = stronger binding; quantity: bound/input enrichment
Target: RING finger protein unkempt homolog, zinc fingers 1-6, GST-SBP tag (UNK, Homo sapiens, UniProt Q9C0B0, residues 30-357)
Chain of UniProt Q9C0B0 (30-357, looked up): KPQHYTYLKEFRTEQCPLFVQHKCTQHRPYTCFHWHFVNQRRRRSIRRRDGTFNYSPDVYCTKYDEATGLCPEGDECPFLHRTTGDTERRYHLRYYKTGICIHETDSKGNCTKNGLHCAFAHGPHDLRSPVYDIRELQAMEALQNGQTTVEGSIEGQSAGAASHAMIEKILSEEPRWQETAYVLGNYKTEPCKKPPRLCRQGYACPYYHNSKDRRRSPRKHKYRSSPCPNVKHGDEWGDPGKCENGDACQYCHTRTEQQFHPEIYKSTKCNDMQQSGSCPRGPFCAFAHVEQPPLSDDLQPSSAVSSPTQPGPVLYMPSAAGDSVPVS
Shared flanks, not repeated: GGGAGUUCUACAGUCCGACGAUC … CAACAGAGGAUUGAGCAUCA
AUGGAUCCUCCAUCAAAGAAUUGUCUUUCUUUUAAUGUCAUUAGUCACCAAGGUUGCAUAAUCCGCAACCUUGUAGUAGCCUGUAGCACAGUGGGAUCUGCAUAUCUUCCGUCUAGUUAC: 2.11 ratio
UCAGAGUGGGGUUUUUCUCAAUUUCCUUGGAACUGAUUAAAAAGAAAUACAACAUCAUCAACCGAUUACAUUAUUCCCUGUGCGGGAUCCAGUUCAAUACGAUGCAUGAGACAUGCUGCA: 0.215 ratio
UGUUGAUGACUUCUUGUGGCAUUUCACACACUGUAGAUGGUCACUCCCUUCAUGUCCAUGUCCGCUCAUGGUGUAAGAUGAUGUCUUGUCAGUAUUACUGUUUUGCUAAGCCGCUUCAUU: 0.076 ratio
GAGAACCAGGAACUCGAGGCUCCUGGAGGAAUUGCCACACCGCCAGUGUACGGUCAGCUUCCCGCUUUGUACUUGCUCCAGAACGACAUGAAUAAUGCAAGAUAUCUGUGGAAGAGGAUA: 0.177 ratio
ACUGUUGUUAAGCACUGUGUUCCAGACCGUGUCUGACUUAGUGUAACCUAGGAGAUUUUACCGUUUUAUUUUAAUGAAACCCUGAUUGACGCACAGCAGUGGGGAGAACAGCGUCUUUUA: 2.1 ratio
AUGAUGAUUUUCAUUGAAGCAUCCUCAGAAAACCCUUGUAGUCUUUACUCUUCUGUCUGUUACCGCCCCCAGGCAGAAAAAGUUUACAAGUUAUGCAGCCCACCCGCUGAUUUGCAUAAG: 0.381 ratio
UUGUUAAAAUGCUAUUUCCUUUAUUACCUUGGAAACUGACUCAGCCUCUUGUUGCUCCUAAUCCGGGUUUAAGGCUCUUGUAAGUUGCAGAUAAAAGGAUUCAUUUUAACAAUAGAAGGA: 0.19 ratio
GAAGAAUACUCCUUUGGUAGAUCAAAGAUAUUCAUCCGAAACCCAAGAACAUUAUUCAAAUCCGAAGACCUGAGGAAGCAACGCCUGGAGGACUUGGCCACUCUCAUUCAGAAGAUAUAU: 0.31 ratio
AGUCCAAAUCACGCAGUGGUGCACGGCAACCUGGCUUGUGUAUACUAUGAGCAAGGCCUGACCGAUCUGGCAAUAGACACCUACAGGCGGGCUAUCGAACUACAACCACAUUUCCCUGAU: 0.36 ratio
UGUGCAUAUGAUGCUUGAGAUGGUUUUUGCAAAAGCAGAAAUCGCUGCAAGGUAAUCACAACCGAUAAAAGUGGUAUUUUAAACCUUUGAAAUAAAUGGAUGUAACUGUACCUUGGUACA: 0.182 ratio
UUUCCUGGGAACAGCACCCAGUACAACAUCCUGGAAGGGUUGGAAAAGCUCAAACAUCCCGACUUUCUGAAGCAGCCACUGGCCACCCAAAAGGAUCUCACUGGCCAGGUGCCCACUCCU: 0.14 ratio

Sample 4 — method: protein binding microarray; form: double-stranded DNA, one strand shown; matrix: in vitro; tested at: not given; reference: not given; reading: higher = stronger binding; quantity: E-score
Target: Histone acetyltransferase KAT6A, winged helix 1, GST fusion (KAT6A, Homo sapiens, UniProt Q92794, residues 1-85)
Setting: 8-mer, flanks averaged, mean of 2 arrays, mostly near background
Target sequence (chain): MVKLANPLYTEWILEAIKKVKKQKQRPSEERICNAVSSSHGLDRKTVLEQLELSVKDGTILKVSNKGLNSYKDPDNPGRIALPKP
AGGGGAAG: -0.208
CTCATCCA: -0.222
GCTGTCCA: -0.0503
AGTATCAG: -0.046
ATGCTCCC: -0.0127
AGAGACCA: -0.151
ACTTTGTG: -0.0849
GAGCGATC: 0.0416
AAGTACCA: -0.0844
GGTATACC: 0.0472
CTAAATAA: -0.0404
CATCCTGA: -0.149
GACCACGC: 0.0624
AGACGCCC: 0.158
CATGAGTA: 0.0148
AATCAATC: -0.0504
GGCGCGTA: 0.385
CTTCCGGA: -0.0496
AACAAAAG: -0.033

Sample 5 — target: CEP164, C-terminal peptide (human); method: DHFR complementation, deep sequencing; matrix: yeast; reference: wild type; reading: higher = weaker binding; quantity: binding free energy change
Setting: single substitutions, model-inferred values
Starting sequence: PDZK1, PDZ domain 2 (human); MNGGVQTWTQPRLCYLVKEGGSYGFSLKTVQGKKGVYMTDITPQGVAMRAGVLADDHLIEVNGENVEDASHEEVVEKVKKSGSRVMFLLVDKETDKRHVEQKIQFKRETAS; partner HNRVKVYRF
V85K: 1.98 kcal/mol
I41K: 1.36 kcal/mol
V99M: -0.126 kcal/mol
V52W: 0.338 kcal/mol
V36I: -0.0107 kcal/mol
K28A: -0.411 kcal/mol
E19A: 0.151 kcal/mol
A69T: -0.141 kcal/mol
A47L: 1.14 kcal/mol
D56E: 0.731 kcal/mol
S81C: 0.179 kcal/mol
I59T: 0.599 kcal/mol
V36E: 0.624 kcal/mol
G20T: 0.253 kcal/mol
V30I: -0.0694 kcal/mol
A69P: 0.422 kcal/mol

Sample 6 — method: DHFR PCA, deep sequencing; matrix: yeast; added: (+)-ABA 0.0091 µM; reference: wild-type fitted maximum; reading: higher = stronger binding; quantity: relative binding score
Target: ABI1, truncated, D143A, DHFR fusion (Arabidopsis thaliana)
Setting: methotrexate growth selection, single substitutions
Starting sequence: PYL1, truncated, DHFR fusion (Arabidopsis thaliana); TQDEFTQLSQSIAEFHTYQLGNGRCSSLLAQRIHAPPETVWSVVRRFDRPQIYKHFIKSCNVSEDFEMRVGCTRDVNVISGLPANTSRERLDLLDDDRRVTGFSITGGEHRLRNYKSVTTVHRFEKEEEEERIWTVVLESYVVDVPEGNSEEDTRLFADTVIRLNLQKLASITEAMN
R46L: 3.4%
E128L: 8.39%
V143H: -2.07%
V100D: -9.2%
S9L: 35%
L28S: -0.714%
E147P: 30.3%
W41K: -11.7%
L29A: 1.46%
R32D: -1.27%
E139T: 8.57%
L138K: 0.567%
E89G: 2.08%
Y53N: 0.906%
D159S: -1.12%
C72K: -1.97%

Sample 7 — target: CREB3L3, bZIP domain (human); method: DHFR protein complementation; matrix: yeast; reference: wild-type JUN-FOS pair; reading: higher = stronger binding; quantity: binding fitness
Setting: single substitutions, most at no-binding floor
Starting sequence: JUN, bZIP domain (human); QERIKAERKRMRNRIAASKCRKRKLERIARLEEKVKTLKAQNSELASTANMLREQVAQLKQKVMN; partner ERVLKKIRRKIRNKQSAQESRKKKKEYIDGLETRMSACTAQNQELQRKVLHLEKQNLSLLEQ
K34C: -1.45 natural log
L31E: -1.45 natural log
T48N: -1.53 natural log
K39V: -1.49 natural log
Q55T: -1.46 natural log
L45H: -1.49 natural log
L52C: -1.58 natural log
Q55I: -1.43 natural log
V35G: -1.49 natural log
M51V: -1.56 natural log
S43T: -1.19 natural log
L45K: -1.54 natural log
L38K: -1.51 natural log
M51N: -1.33 natural log
Q55W: -1.49 natural log
V56K: -1.39 natural log
L52N: -1.45 natural log
E33L: -1.37 natural log
S43W: -1.4 natural log
K34R: -1.45 natural log

Single results of other studies
PhoQ, residues 284 288 289 292 302 303 ALAMYF  fold induction (PhoP, residues 12 14 15 18 19 NQFFI (Escherichia coli, UniProt P23836); Sort-seq, refers to: YFP reporter; E. coli; PhoQ-PhoP variant library, added: 10 µM Mg2+; reference: high Mg2+ state, higher = stronger signaling): 12
